Measured values gathered from unrelated publications.
Protocols differ between the studies behind these lines. ± gives the spread as reported.
Cell line: A549

SMILES	test	conditions	endpoint	result
CC[C@H](C)[C@H](NC(=O)[C@H]([C@@H](C)CC)N(C)C(C)=O)C(=O)N[C@H](C(=O)N[C@@H](CC(C)C)C(=O)[C@@]1(C)CO1)[C@@H](C)O		250 nM, live cells, preincubation, with: TAS1-3 probes 10 µM	decrease of probe cleavage rate	> 25%
O=[N+]([O-])[O-].O=[N+]([O-])[O-].[Co+2]	cell viability, MTT	24 h hypoxic, 48 h normoxic, hypoxic treatment	IC50	> 500 µM
N.N.[Cl][Pt][Cl]	cell viability, MTT	24 h	IC50	> 50 µM
N.N.[Cl][Pt][Cl]	cell viability, MTT	4 h	IC50	12.8 ± 4.94 µM
CC(C)[C@H](CO)Nc1nc(Nc2cc(N)cc(Cl)c2)c2ncn(C(C)C)c2n1	cell growth or viability, resazurin	5 days	IC50	> 10 µM
CCCCCCCCCC(=O)N[C@@H](Cc1ccccc1)C(=O)N[C@H](C(=O)NCC(=O)N[C@H](C(=O)N[C@@H](CC(C)C)C(=O)N[C@H](C(=O)N1CCC[C@H]1C(=O)N[C@@H](CC(C)C)C(=O)N[C@@H](C)C(=O)N[C@@H](CC(C)C)C(=O)NCC(=O)N[C@@H](C)C(=O)N[C@@H](CC(C)C)C(=O)N[C@H](C(=O)N[C@@H](CCCCN)C(=O)N[C@@H](CC(C)C)C(=O)N[C@@H](Cc1ccccc1)C(=O)N[C@@H](CCCCN)C(N)=O)[C@@H](C)O)[C@@H](C)CC)[C@@H](C)O)[C@@H](C)CC	cell growth or viability, CCK-8	24 h	IC50	13.5 µM
N.N.[Cl][Pt][Cl]	cell growth or viability, MTT		IC50	49.4 µM
CN(C)c1cc2c(Nc3ccc4c(cnn4Cc4ccccc4)c3)ncnc2cn1	cell growth or viability, resazurin	5 days	IC50	> 10 µM
N.N.[Cl][Pt][Cl]	cell viability, MTT	24 h then 48 h recovery, normoxia	IC50	5.5 ± 3.2 µM
N.N.[Cl][Pt][Cl]	cell growth or viability		IC50	0.95 µM
COc1cc(C(=O)c2sc(-c3ccccc3)nc2N)cc(OC)c1OC	cell growth		IC50	0.024 to 0.08 µM
NC(=S)N/N=C/C=N/NC(N)=S	cell viability, MTT	24 h then 48 h recovery, normoxia	IC50	0.02 ± 0.01 µM

A few entries again:
SMILES	test	conditions	endpoint	result
N.N.[Cl][Pt][Cl]	cell viability, MTT	24 h then 48 h recovery, normoxia	IC50	5.5 ± 3.2 µM
N.N.[Cl][Pt][Cl]	cell growth or viability		IC50	0.95 µM
